Published values of several laboratories.
Protocols differ between the studies behind these lines. Several values in a cell are separate wells, animals, samples, runs or records. Numbers after ± are the reported error.

| SMILES | assay | system | conditions | scale | measurement | result |
| --- | --- | --- | --- | --- | --- | --- |
| CCC1(C)CC(OC(=O)CSc2nnc(N)[nH]2)C2(C)C(C)CCC3(CCC(=O)C32)C(C)C1O (stereo not drawn) | haemolysis | sheep erythrocytes | 1 h, pH 7.5 |  | HC50 | > 128 µg/mL |
| CC(C)N(CCCCOCC(=O)O)c1cnc(-c2ccccc2)c(-c2ccccc2)n1 | population PK model | healthy human, plasma | oral |  | k34 rate constant | 13.5 h⁻¹ |
| O=C(Nc1nc2cccc(-c3ccc(CN4CCS(=O)(=O)CC4)cc3)n2n1)C1CC1 | item: nervous system disorders | human rheumatoid arthritis patients | oral, 150 mg once daily, 4 weeks, regardless of relatedness |  | treatment-emergent adverse events | 0% |
| COc1cc(N2CCC(N3CCN(C)CC3)CC2)ccc1Nc1ncc(Cl)c(Nc2ccccc2P(C)(C)=O)n1 | mass balance and in vitro | human | oral, 180 mg, remaining routes unassigned |  | CYP3A4 contribution to clearance | 42.8% |
| CC#CC(=O)N1CC[C@@H](n2c(=O)n(-c3ccc(Oc4ccccc4)cc3)c3c(N)ncnc32)C1 |  | human, fasting, plasma | oral, 480 mg once daily, cycle 1 day 28 |  | Tmax, median | 3.61 h |
| O=C(CCCN1CCC(O)(c2ccc(Cl)cc2)CC1)c1ccc(F)cc1 |  | male Hartley guinea pig, anaesthetized | intravenous infusion, 1 mg/kg, 10 min infusion, post-infusion |  | QTc interval | 401 ± 0.2 ms |
| CCCCCCCCCCCCCCCC(=O)N[C@@H](CCC(=O)NCCCC[C@@H]1NC(=O)[C@H]([C@@H](C)CC)NC(=O)[C@@H](NC(=O)[C@@H]2CCCN2C(=O)[C@H](Cc2ccccc2)NC(=O)[C@H](Cc2c[nH]cn2)NC(=O)[C@@H](NC(=O)[C@H](CC(=O)O)NC(=O)CC(C)C)[C@@H](C)O)CSSC[C@@H](C(=O)N[C@@H](CCCCN)C(N)=O)NC(=O)CNC(=O)[C@H](CCCCN)NC(=O)[C@H](CO)NC(=O)[C@H](CCCNC(=N)N)NC(=O)[C@@H]2CCCN2C(=O)[C@H](CCC(=O)O)NC(=O)[C@H](Cc2ccccc2)NC1=O)C(=O)O |  | healthy volunteers, plasma | subcutaneous, 45 mg single, lyophilised formulation |  | CL/F | 19.3 ± 4.03 mL/min |
| Cc1ccc([C@@H]2O[C@H](CO)[C@@H](O)[C@H](O)[C@H]2O)cc1Cc1ccc(-c2ccc(F)cc2)s1 |  | Japanese type 2 diabetes patients | 100 mg, day 15, 24 h urine collection | reference: baseline | urinary potassium excretion change | 5.24 mEq |
| CNc1ccc(-c2nc3ccc(O)cc3s2)cc1 [carbon-11 labelled] | microPET/CT imaging | B6SJL mouse, normal, brain | intravenous, 20 min |  | SUV | 0.21 ± 0.065 |
| CCc1ccc(C(=O)Oc2ccc(C#N)c(F)c2)cc1 | item: compound | human pregnant women, male fetuses, maternal serum | dose not given, paired maternal-cord samples, mean |  | concentration | 5.33 ng/mL |
| O=C(Nc1cnccc1Cl)N1CCN(Cc2ccc3c(c2)OC(F)(F)O3)CC1 | item: Dizziness | human healthy young men | 10 mg, multiple dose |  | adverse event incidence | 0% |
| C[C@@H](Cn1ccc(-c2ccc(C#N)c(Cl)c2)n1)NC(=O)c1cc([C@@H](C)O)[nH]n1 |  | human, fasted, plasma | oral tablet, 300 mg, geometric mean |  | AUC(0-tlast) | 2180 ng·h/mL |
| CN1CCN(c2ccc(OC(F)(F)F)c(Nc3ncc4c(n3)-c3c(c(C(N)=O)nn3CCO)CC4)c2)CC1 | LC-MS/MS | human, plasma | oral, 12 mg/m2, 2 h post-dose |  | plasma concentration | 61.2 ng/mL and 89.5 ng/mL |
| O=C(c1nc2n(n1)[C@H](c1ccccc1)C[C@@H]2F)C1CC1 |  | human | 25 mg single dose |  | fraction excreted in urine 0-72 h | 0.1 to 0.3% |
| O=C(O)c1occc1S(=O)(=O)NC1CCSc2c(F)cccc21 (stereo not drawn) | colloidal aggregate formation, dynamic light scattering | 50 mM potassium phosphate buffer | 200 µM, pH 7.0, 1% DMSO | higher = more aggregation | DLS scattered light intensity | 284000 counts/s |
| CCn1cc(C(=O)N2CCOCC2)c(=O)c2cc(NC3Cc4ccccc4C3)cnc21 |  | human, fed | oral suspension, 2000 mg/day twice daily, day 1, arithmetic mean |  | AUC(0-12) | 8790 ng·h/mL |
| NCCONC(=O)[C@@H]1CC[C@@H]2CN1C(=O)N2OS(=O)(=O)O | item: Moderate severity | healthy Chinese men | intravenous, 2 g, treatment-related |  | adverse event incidence | 0% |
| CCN1/C(=C/C(C)=O)Sc2ccc(F)cc21 |  | cynomolgus monkey | oral, 100 mg/kg, 2 h post-dose | reference: pre-dose | heart rate change | 116 ± 21.5% |
| COc1ccc([C@@H](O)c2cc(-c3ncnc4cc(N5CCOCC5)ccc34)c(F)cc2Cl)nn1 |  | human, plasma | oral, 100 mg twice daily, single dose, geometric mean |  | AUC(0-12) | 1370 ng·h/mL |
| COc1ccc(NC(=O)N2CCCCN3[C@H](CN(C)S(C)(=O)=O)[C@H](c4ccc(C#Cc5ccccc5)cc4)[C@@H]3C2)cc1 |  | CD-1 mouse | intravenous, dose not given |  | Vss | 4 L/kg |

| SMILES | assay | system | conditions | scale | measurement | result |
| --- | --- | --- | --- | --- | --- | --- |
| COc1ncc(-c2nc3c(n2C(C)C)[C@H](c2ccc(Cl)cc2)N(c2cc(Cl)cn(C)c2=O)C3=O)c(OC)n1 | LC-MS/MS | human, plasma | oral, 20 mg, cycle 1 day 14, low-dose arm |  | AUC(0-last) | 1040 ng·h/mL |
| O=S(=O)(Nc1cc(-n2cccc2)ccc1F)c1cc(Cl)cc(Cl)c1O | colloidal aggregate formation, dynamic light scattering | 50 mM potassium phosphate buffer | 200 µM, pH 7.0, 1% DMSO | higher = more aggregation | DLS scattered light intensity | 4.08e+08 counts/s |
| O=C1NCCc2nc(OCc3cccc(F)c3)ccc21 | item: Lacrimation | Sprague-Dawley rat male | oral, 100 mg/kg, 30 min | direction not given | Irwin test score | 0 |
| O=C(O)CCCOc1ccc([18F])cc1-c1cc(-c2ccccc2C(F)(F)F)n(-c2ccccc2)n1 | gamma counting | male ddY mice, pancreas | intravenous, 2.1 MBq, 15 min |  | radioactivity uptake | 0.37 ± 0.03 SUV |
| CNC(=O)c1ccc(-c2cnc3ncc(Cc4ccc5ncccc5c4)n3n2)cc1F | item: Diarrhea | gastric cancer patients | oral, 600 mg twice daily, expansion cohort, grade 3-4 |  | patients with adverse event | 0% |
| CCCOc1ccc([C@H]2CNC(=O)N2c2ccc3[nH]cnc3c2)cc1 |  | human volunteers fed, plasma | oral tablet, 200 mg single dose, crossover, geometric mean |  | AUC(0-tlast) | 2300 ng·h/mL |
| NC1(C(=O)N[C@@H](CCO)c2ccc(Cl)cc2)CCN(c2nc[nH]c3nccc2-3)CC1 | LC-MS/MS, non-compartmental | human, plasma | together with: enzalutamide |  | Tmax | 2 h and 4 h |
| C[C@H]1CN(C(=O)CC#N)[C@]12CCN(c1ncnc3[nH]ccc13)C2 |  | healthy human | oral, 3 mg single |  | subjects with TEAEs | 25% |
| C[C@@H](Oc1ccc(S(C)(=O)=O)cc1C(=O)N1C[C@@H]2C[C@]2(c2cc(C(F)(F)F)on2)C1)C(F)(F)F |  | elderly humans, urine | oral, 50 mg once daily, 0-24 h, multiple dose, geometric mean |  | fraction excreted in urine at steady state | 6.68% |
| CNCc1ccc(-c2[nH]c3cc(F)cc4c3c2CCNC4=O)cc1 |  | patients | oral, 480 mg twice daily, all grades |  | asthenia/fatigue incidence | 55.6% |
| OCCOCc1ccc(-c2noc(-c3ccc(OCC[18F])c(C(F)(F)F)c3)n2)cc1 |  | Macaca mulatta, liver |  |  | liver uptake | 35 to 38 % injected dose |
| CC(Cc1c(F)cccc1F)NS(=O)(=O)c1ccoc1C(=O)O (stereo not drawn) | colloidal aggregate formation, dynamic light scattering | 50 mM potassium phosphate buffer | 200 µM, pH 7.0, 1% DMSO | higher = more aggregation | DLS scattered light intensity | 5.84e+06 counts/s |
| COc1ccc2c(c1)CN(C(=O)CCN1CCC(Cc3ccccc3)CC1)CC[S@@+]2[O-] | telemetry | conscious dog | intravenous, 4 mg/kg, 4 h |  | diastolic blood pressure | 74 ± 8 mmHg |
| CCCOc1ccc(NS(=O)(=O)c2cc(Cl)cc(Cl)c2O)cc1F | colloidal aggregate formation, dynamic light scattering | 50 mM potassium phosphate buffer | 200 µM, pH 7.0, 1% DMSO | higher = more aggregation | DLS scattered light intensity | 411000 counts/s |
| O=C(O)CCC(=O)O.[2H]C([2H])([2H])Oc1cc(C)c2[nH]ccc2c1CN1CC[C@@H](C2CC2)C[C@H]1c1ccc(C(=O)O)cc1 | multiple ascending dose | healthy Chinese subjects | 200 mg once daily |  | subjects with TEAE Appendicitis | 0% |
| O=C1Cc2cc(CCN3CCN(c4nsc5ccccc45)CC3)c(Cl)cc2N1 |  | male Hartley guinea pig, anaesthetized | intravenous, 0.3 mg/kg, baseline before infusion |  | QTc interval | 366 ± 2 ms |
| CC(=O)N(C)[C@H]1CCN(C(=O)c2cnc3c(c2)C[C@](C)(c2ccc(F)cc2)N3)C1 |  | human | oral, 60 mg, after first dose |  | duration of mild visual impairment | 144 days |
| CC[C@H](C)CCCCC(=O)N[C@@H](CCN)C(=O)N[C@H](C(=O)N[C@@H](CCN)C(=O)N[C@H]1CCNC(=O)[C@H]([C@@H](C)O)NC(=O)[C@H](CCN)NC(=O)[C@H](CCN)NC(=O)[C@H](CC(C)C)NC(=O)[C@@H](Cc2ccccc2)NC(=O)[C@H](CCN)NC1=O)[C@@H](C)O |  | mild renal impairment | intravenous infusion, 0.75 mg/kg single dose over 1 h, arithmetic mean |  | volume of distribution (Vz) | 22.4 L |
| C[C@H]1C=C(Cc2ccccc2)C(=O)O1 | soil adsorption | clay loam soil | pH 6.8, organic carbon 0.5 % |  | Freundlich coefficient KF | 1.5 mL/g |
